Measurements from different studies.
Each line is one published result; not all experiments were run side by side. ± gives the spread as reported.

CCCCN1C(=O)c2cccc3c(NCCCN4CCOCC4)ccc(c23)C1=O  fluorescence quantum yield (ethylene glycol): 0.15
C=Cc1ccccc1[B-]12OC(=O)C(c3ccccc3)=N[N+]1=C(CC)c1ccc(N(CC)CC)cc1O2 (stereo not drawn)  fluorescence quantum yield (toluene): 0.61
CN1CCN(c2ccc3[nH]c(-c4ccc5[nH]c(-c6ccc(OCCCCNC(=O)c7cccc8c7C(=O)OC87c8ccc(N(C)C)cc8C(C)(C)c8cc(N(C)C)ccc87)cc6)nc5c4)nc3c2)CC1  fluorescence quantum yield (PBS): 0.05 ± 0.02
CN(C)c1ccc(/C=C/c2cc(=O)cc(/C=C/c3ccc(N(C)C)cc3)o2)cc1  fluorescence quantum yield (acetonitrile/water 1:19 v/v; 10 µM, 298 K, aggregate nanoparticle suspension): 0.11
COC(=O)c1ccccc1-c1c2ccc(=O)cc-2oc2c1ccc1cccc(O)c12  fluorescence quantum yield (12.5 mM aqueous NaOH; pH 12.1, 10% DMSO): 0.19%
CN1CCN(c2ccc(/C=C/c3cc(=O)cc(/C=C/c4ccc(N5CCN(C)CC5)cc4)o3)cc2)CC1  fluorescence quantum yield (acetonitrile; 10 µM, 298 K; baseline: 9,10-diphenylanthracene in toluene): 0.004
Nc1ccc2cc(/C=C/C(=O)c3ccc(O)cc3)ccc2c1  fluorescence quantum yield (toluene; baseline: coumarin 153 in ethanol): 2.4 ± 0.2%
CCN(CC)c1ccc2c(c1)O[B-]1(c3ccccc3)OC(=O)C(c3ccccc3)=N[N+]1=C2 (stereo not drawn)  fluorescence quantum yield (toluene): 0.63
CCCCN1C(=O)c2cccc3c(NCCN4CCOCC4)ccc(c23)C1=O  fluorescence quantum yield (ethylene glycol): 0.02
CCN(CC)c1ccc2c(c1)O[B-]1(c3ccccc3C)OC(=O)C(c3ccccc3)=N[N+]1=C2 (stereo not drawn)  fluorescence quantum yield (toluene): 0.65
CC1(C)C(=CC=C2CCCC(C=CC3=[N+](CCC[N+](C)(C)C)c4ccc(S(=O)(=O)O)cc4C3(C)C)=C2SCCOCCOCCC(=O)O)N(CCC[N+](C)(C)C)c2ccc(S(=O)(=O)O)cc21  fluorescence quantum yield (HEPES buffer with FBS; pH 7.4, 50 mM HEPES, 30% FBS): 5.9%
CCCCN1C(=O)c2cccc3c(N4CC[N+](C)(C5OC(C(=O)O)C(O)C(O)C5O)CC4)ccc(c23)C1=O (stereo not drawn)  fluorescence quantum yield (Tris-HCl-acetonitrile 1:1; 5.0 µM; baseline: quinine sulfate): 0.47
CCN(CC)c1ccc2c(c1)O[B-]1(c3ccccc3)OC(=O)C(c3ccccc3)=N[N+]1=C2C(C)C (stereo not drawn)  fluorescence quantum yield (toluene): 0.65
O=c1cc(/C=C/c2ccc(N3CCOCC3)cc2)oc(/C=C/c2ccc(N3CCOCC3)cc2)c1  fluorescence quantum yield (acetonitrile; 10 µM, 298 K; baseline: 9,10-diphenylanthracene in toluene): 0.005
CCN(CC)c1ccc2c(c1)O[B-]1(c3c(C)cccc3C)OC(=O)C(c3ccccc3)=N[N+]1=C2 (stereo not drawn)  fluorescence quantum yield (toluene): 0.12
O=c1cc(/C=C/c2ccc(N3CCCC3)cc2)oc(/C=C/c2ccc(N3CCCC3)cc2)c1  fluorescence quantum yield (acetonitrile; 10 µM, 298 K; baseline: 9,10-diphenylanthracene in toluene): 0.011
CCCCN1C(=O)c2cccc3c(NCCCCCCCCCCN4CCOCC4)ccc(c23)C1=O  fluorescence quantum yield (ethylene glycol): 0.75
CCN(CC)c1ccc2c(c1)O[B-]1(c3ccccc3)OC(=O)C(c3ccccc3)=N[N+]1=C2C (stereo not drawn)  fluorescence quantum yield (toluene): 0.75

A few entries again:
O=c1cc(/C=C/c2ccc(N3CCOCC3)cc2)oc(/C=C/c2ccc(N3CCOCC3)cc2)c1  fluorescence quantum yield (acetonitrile; 10 µM, 298 K; baseline: 9,10-diphenylanthracene in toluene): 0.005
CCCCN1C(=O)c2cccc3c(NCCCN4CCOCC4)ccc(c23)C1=O  fluorescence quantum yield (ethylene glycol): 0.15
